Results of several laboratories.
Parts stem from different laboratories: compare values within a part only. Several values in a cell are separate wells, animals, samples, runs or records.

Series 1
Cell line: HH
Concentration: 2 µM
Time: 48 h
Reference: untreated
Structure (SMILES) | viability [%]
Cn1cnc2c(F)c(Nc3ccc(Br)cc3F)c(C(=O)NOCCO)cc21 | 98.5
C=CC(=O)Nc1ccc(CN2C(=O)N(c3cc(OC)cc(OC)c3)Cc3cnc(Nc4ccc(N5CCN(C)CC5)cc4)nc32)cc1 | 75.1
COc1cc2ncnc(Nc3ccc(O)c(Br)c3)c2cc1OC | 91.9
Cc1ccc(NC(=O)c2cccc(N(C)C)c2)cc1NC(=O)c1ccc(O)cc1 | 77.6
Cc1cnc(Nc2ccc(N3CCN(C)CC3)cc2)nc1Nc1cccc(S(=O)(=O)NC(C)(C)C)c1 | 53.9

Series 2
Cell line: mouse MPNST tumor cells
Method: high-content immunofluorescence imaging
Refers to: nuclear SOX9
Concentration: 10 µM
Time: 12 h
Notes: mean of 2 replicates
Reference: DMSO control
Direction: higher = more nuclear SOX9
SMILES | nuclear SOX9 intensity
CN1CCCN=C1/C=C/c1cccs1 | 95 % of DMSO
CC(=O)[C@H]1CC[C@H]2[C@@H]3C[C@H](C)C4=CC(=O)CC[C@]4(C)[C@H]3[C@@H](O)C[C@]12C | 84.9 % of DMSO
COc1ccc2c(c1)N(C[C@H](C)CN(C)C)c1ccccc1S2 | 190 % of DMSO
COc1cc(N2CCOCC2)ccc1Nc1ncc(Cl)c(Nc2ccccc2NS(C)(=O)=O)n1 | 115 % of DMSO

Further values, each from its own experiment
Structure (SMILES) | tested on | test | system | setting | scale | quantity | result
CC(C)C[C@@H]1NC(=O)[C@@H](N(C)C(=O)[C@H](CC2CCC2)NC(=O)[C@@H]2C[C@@H](F)CN2C(=O)C2(C(F)(F)F)CC(F)(F)C2)CCCCNC(=O)C2(CC2)NC(=O)[C@H](Cc2cc(Cl)ccc2Cl)N(C)C1=O | NCI-H446 | Vi-Cell counting |  | 6 nM, 3 days, added: Mps1 inhibitor 3 nM | reference: DMSO | cell count | 0.895 and 1.02
COc1ccc(-c2c(Nc3ccccn3)[nH]c3c(C4=CCCCC4)c(-c4ccccc4)nn3c2=O)cc1 |  | LC-MS/MS non-compartmental | human, plasma | oral, 200 mg twice daily, cycle 1 |  | AUC(0-inf) observed | 2260 µg·h/mL

For quick reference, copied from above (series 1):
Structure (SMILES) | viability [%]
Cc1cnc(Nc2ccc(N3CCN(C)CC3)cc2)nc1Nc1cccc(S(=O)(=O)NC(C)(C)C)c1 | 53.9
